Experimental data pooled from the literature.
Protocols differ between the studies behind these lines. Several values in a cell are separate wells, animals, samples, runs or records. ± gives the spread as reported.
MT-CYB/UQCRFS1: MT-CYB/UQCRFS1 (Homo sapiens, UniProt P00156+P47985)
Protein lin-28 homolog A: Protein lin-28 homolog A (Mus musculus, UniProt Q8K3Y3)
KEAP1 Kelch domain: Kelch-like ECH-associated protein 1, Kelch domain (KEAP1, Homo sapiens, UniProt Q14145)
TOP2A: DNA topoisomerase 2-alpha (TOP2A, Homo sapiens, UniProt P11388)

SMILES = O=C1Nc2ccc(Br)cc2C1=O; target = Dehaloperoxidase B, ferric (Amphitrite ornata, UniProt Q9NAV7); test = product, HPLC; setting = 5 min, pH 7, 25 °C, enzyme 10 µM, together with: 5-bromoindole and H2O2 500 µM each; endpoint = product formed; value = 6.8 M
SMILES = OC[C@H]1OC(O)[C@H](O)[C@@H](O)[C@@H]1O (stereo partly shown); target = hexokinase, yeast; test = substrate; setting = pH 8.0, 25 °C, MgCl2 1.5 mM, together with: ATP varied; endpoint = Kia; value = 3280 µM
SMILES = CCO[C@@H](Cc1ccc(OCCn2c(C)ccc2-c2ccc(SC)cc2)cc1)C(=O)O; target = Peroxisome proliferator-activated receptor alpha (Rattus norvegicus, UniProt P37230); test = receptor activation, agonist; setting = species rat; how to read = relative to: internal control agonist; endpoint = Emax; value = 110%
SMILES = NC(=O)NOCCCCCCCCCCCCCC[P+](c1ccccc1)(c1ccccc1)c1ccccc1.O=C([O-])C(F)(F)F; target = MT-CYB/UQCRFS1; test = complex III-dependent respiration, Seahorse XF96; system = HCT-116; setting = 10 µM, 24 h; how to read = relative to: control; endpoint = oxygen consumption rate; value = 13.9 ± 5.27%
SMILES = CCN1CCC[C@H]1CNC(=O)c1c(O)c(Cl)cc(Cl)c1OC; target = Mas-related G-protein coupled receptor MRG (MAS1L, Homo sapiens, UniProt P35410); test = β-arrestin recruitment, TANGO luminescence, refers to: MAS1L; setting = concentration not given; how to read = relative to: basal luminescence; endpoint = log2 fold change; value = 0.312
SMILES = CCCC(C)N1CCC(N(Cc2ccccc2CNC(=O)CCl)C(=O)Nc2cccc(C(F)(F)F)c2)CC1 (stereo not shown); target = DCN1-like protein 1 (Homo sapiens, UniProt Q96GG9); test = covalent binder, LC-TOF mass spectrometry; setting = 60 µM, overnight, 4 °C, together with: DCN1-like protein 1 30 µM; endpoint = covalent adduct formation; value = 0%
SMILES = O=C(O)c1cc2cccc([N+](=O)[O-])c2[nH]1; target = Protein lin-28 homolog A; endpoint = Hill slope; value = -0.9
SMILES = CC(C)C(=O)Nc1n[nH]c2cc(-c3cccc(NS(=O)(=O)C4CC4)c3)ccc12; target = PIP5K1C (Homo sapiens, UniProt O60331); test = ADP-Glo; setting = 4.57 nM, together with: 10 µM ATP; endpoint = ADP produced; value = 2.85 µM
SMILES = CC(=O)N[C@@H](CO)C(=O)N[C@@H](CC(C)C)C(=O)N[C@@H](CCC(=O)O)C(=O)N[C@@H](CCC(=O)O)C(=O)N1CCC[C@H]1C(=O)N[C@@H](Cc1c[nH]cn1)C(=O)N[C@@H](CO)C(=O)N1CCC[C@H]1C(=O)N[C@@H](CCC(=O)O)C(=O)N[C@H](C(=O)NCC(=O)N[C@@H](CCC(=O)O)C(=O)N[C@@H](CCCCN)C(=O)N[C@H](C(=O)N[C@H](C(=O)N[C@@H](C)C(=O)NCC(=O)N[C@@H](CCC(=O)O)C(=O)N[C@H](C(=O)N[C@@H](CC(N)=O)C(N)=O)C(C)C)C(C)C)C(C)C)[C@@H](C)O; target = KEAP1 Kelch domain; test = binding, ITC; setting = pH 7, 298.15 K; endpoint = ΔH; value = -18.15 ± 0.094 kcal/mol
SMILES = CC1=C(/C=C/C(C)=C/C=C/C(C)=C/C=O)C(C)(C)CCC1; target = Rhodopsin (RHO, Bos taurus, UniProt P02699, G270A); test = retinal entry, Trp FRET; system = lipid bicelles; setting = 28 °C, G270A mutant; how to read = relative to: wild-type rhodopsin; endpoint = relative kon; value = 1.01 ± 0.08
SMILES = Cc1cccc(N2CC(C(=O)O)CC2=O)c1 (stereo not shown); target = YTHDF2 (Homo sapiens, UniProt Q9Y5A9); test = binding, affinity selection mass spectrometry; how to read = relative to: other proteins in batch; endpoint = log fold enrichment; value = 0.0347
SMILES = CCCCC[C@@H]1OC(=O)[C@@H](C)N(C)C(=O)[C@H](CCCCC)OC(=O)[C@@H](C)N(C)C(=O)[C@H](CC(=O)O)OC(=O)[C@@H](C)N(C)C(=O)[C@H](CCCCC)OC(=O)[C@@H](C)N(C)C1=O; target = ryanodine receptor 2 (Sus scrofa, UniProt A0A5G2R1W3); test = single-channel gating, planar lipid bilayer; setting = 50 µM, pCa 7, porcine; endpoint = closed dwell time constant T2; value = 79 ± 47 ms
SMILES = O=c1nc(SCc2ccc(C(F)(F)F)cc2)nc(SCc2csc3ccc(Cl)cc23)[nH]1; target = TOP2A; test = DNA relaxation; setting = 15.6 µM; endpoint = mean relaxed DNA; value = 0.3%
SMILES = C=CC(=O)N1CCC(COCC(=O)N2CCN(c3nc(-c4cnc(N)nc4C(F)F)nc(N4CCOC[C@@H]4C)n3)CC2)CC1; target = IKBKE (Homo sapiens, UniProt Q14164); test = KINOMEscan; setting = 1 µM; endpoint = remaining binding; value = 84%
SMILES = CCCCC[C@H](O)/C=C/[C@H]1[C@H](O)CC(=O)[C@@H]1C/C=C\CCCC(=O)O; target = PTGER1 (Homo sapiens, UniProt P34995, G92A/P39A); test = IP1 accumulation, agonist; system = AD293; setting = 1 h; how to read = relative to: wild type receptor; endpoint = Emax; value = 98.3 ± 4.22%
SMILES = NC(=O)NOCCCCCCCCCCCCCCCC[P+](c1ccccc1)(c1ccccc1)c1ccccc1.O=C([O-])C(F)(F)F; target = MT-CYB/UQCRFS1; test = complex III-dependent respiration, Seahorse XF96; system = HCT-116; setting = 1 µM, 24 h; how to read = relative to: control; endpoint = oxygen consumption rate; value = 64.7%
SMILES = NCCCC(=O)O; target = SLC6A6 (Homo sapiens, UniProt P31641, L306A); test = binding, microscale thermophoresis; setting = 488 nM, room temperature, together with: 50 nM labelled protein; how to read = higher = more binding; endpoint = normalised MST signal; value = -0.0824
SMILES = NC(=O)NOCCCCCCCCCCCCCCCCCCCC[P+](c1ccccc1)(c1ccccc1)c1ccccc1.O=C([O-])C(F)(F)F; target = MT-CYB/UQCRFS1; test = complex III-dependent respiration, Seahorse XF96; system = HCT-116; setting = 1 µM, 24 h; how to read = relative to: control; endpoint = oxygen consumption rate; value = 96.6%
SMILES = CC(C)C[C@H](NC(=O)[C@@H](N)[C@@H](C)O)C(=O)N[C@@H](CCC(N)=O)C(=O)N1CCC[C@H]1C(=O)N1CCC[C@H]1C(=O)N[C@@H](C)C(=O)N[C@@H](CO)C(=O)N[C@@H](CO)C(=O)N[C@@H](CCCNC(=N)N)C(=O)N[C@H](CCCNC(=N)N)C(=O)N[C@@H](CCCNC(=N)N)C(=O)N[C@@H](Cc1c[nH]cn1)C(=O)N[C@@H](Cc1ccccc1)C(=O)N[C@@H](Cc1c[nH]cn1)C(=O)N[C@@H](Cc1c[nH]cn1)C(=O)N[C@@H](C)C(=O)N[C@@H](CC(C)C)C(=O)N1CCC[C@H]1C(=O)N1CCC[C@H]1C(=O)NCC(=O)N[C@@H](CCCNC(=N)N)C(=O)O; target = C3AR1 (Homo sapiens, UniProt Q16581); test = β-arrestin recruitment, agonist, Tango; system = HTLA transfected; endpoint = Emax; value = 147 % basal
SMILES = C=CC(=O)N1CCC[C@@H](n2nc(-c3ccc(Oc4ccccc4)cc3)c3c(N)ncnc32)C1; target = MUSK (Homo sapiens, UniProt O15146); setting = 10 µM; endpoint = remaining activity; value = 148%
SMILES = CN1CCN(c2cc(-c3ccncc3)c(-c3ccc4ccccc4c3)nn2)CC1; target = FSHR (Homo sapiens, UniProt P23945); test = agonist, FLIPR; setting = 12.5 µM; endpoint = activation; value = -1.7%
SMILES = CC[C@@H]1[C@H](F)C(=O)N[C@@H]1COc1nccc2cc(C(N)=O)c(OC)cc12; target = STE20-related kinase adapter protein beta (Homo sapiens, UniProt Q9C0K7); test = ATP probe binding, KiNativ profiling, refers to: Lys1 probe site; system = THP-1 cell lysate; setting = 0.2 mM; endpoint = inhibition; value = 11.5%
SMILES = Nc1ncnc2c1ncn2[C@@H]1O[C@H](CO[P@](=O)(O)O[P@](=O)(O)O[P@@](=O)(O)S)[C@@H](O)[C@H]1O; target = GUK1 (Homo sapiens, UniProt Q16774); test = binding, isothermal titration calorimetry; setting = molar ratio 3.279, fitted curve; endpoint = ΔH; value = -0.221 kcal/mol
SMILES = CC[C@H](C)[C@H](NC(=O)[C@@H]1CCCN1C(=O)[C@H](CC(C)C)NC(=O)[C@H](Cc1ccccc1)NC(=O)[C@H](CCC(=O)O)NC(=O)CNC(=O)[C@@H](NC(=O)[C@H](CCC(=O)O)NC(=O)[C@@H]1CCCN1C(=O)[C@H](CC(=O)O)NC(=O)[C@H](CC(C)C)NC(=O)[C@H](CCC(N)=O)NC(=O)[C@H](CC(C)C)NC(=O)[C@H](CCC(N)=O)NC(=O)[C@H](C)NC(=O)[C@H](Cc1ccccc1)NC(C)=O)[C@@H](C)O)C(=O)N[C@@H](CCC(N)=O)C(=O)N1CCC[C@H]1C(=O)N[C@@H](C)C(=O)N[C@@H](CCC(N)=O)C(N)=O; target = KEAP1 Kelch domain; test = binding, ITC; setting = pH 7, 298.15 K; endpoint = TΔS; value = -5.37 kcal/mol
SMILES = O=c1nc(SCc2cc(F)cc(C(F)(F)F)c2)nc(SCc2ccc3nc(Cl)ccc3c2)[nH]1; target = TOP2A; test = ATPase activity; setting = 125 µM, together with: ATP 0.75 mM; endpoint = ATP hydrolysis rate; value = 2.55 µM/min and 0.322 µM/min
SMILES = CC(=C/C(=O)O)/C=C/C=C(\C)C1C=C2C(C)(C)CCCC2(C)O1 (stereo not shown); target = Rhodopsin (RHO, Homo sapiens, UniProt P08100, P23H); test = ER retention, immunostaining co-localization, refers to: opsin with calnexin; system = COS-7 transfected P23H; setting = 0.05 µM; endpoint = Pearson correlation coefficient; value = 0.77
SMILES = CSCC[C@H](NC(=O)[C@H](CCC(N)=O)NC(=O)[C@H](CC(C)C)NC(=O)[C@H](CO)NC(=O)[C@H](CCC(N)=O)NC(=O)[C@H](CC(C)C)NC(=O)[C@H](CCC(=O)O)NC(=O)CNC(=O)[C@@H](NC(=O)[C@H](CO)NC(=O)[C@@H]1CCCN1C(=O)[C@H](CC(=O)O)NC(=O)[C@@H](NC(=O)[C@H](CCC(=O)O)NC(=O)[C@H](CCCCN)NC(=O)[C@H](CO)NC(=O)[C@H](CO)NC(=O)[C@H](CC(C)C)NC(C)=O)C(C)C)[C@@H](C)O)C(=O)N1CCC[C@H]1C(=O)N[C@@H](CCC(=O)O)C(N)=O; target = KEAP1 Kelch domain; test = binding, ITC; setting = pH 7, 298.15 K; endpoint = ΔH; value = -18.27 ± 0.088 kcal/mol
SMILES = Cc1cc(=O)[nH]c(SCc2cccc3ccccc23)n1; target = Protein lin-28 homolog A; endpoint = Hill slope; value = -2.6
SMILES = O=C1Nc2c(ccc(Cl)c2Cl)C1=NO; target = KCNN4/CALM1 (Homo sapiens, UniProt O15554+P0DP23, N201F); test = ion current, activator, whole-cell patch clamp; setting = N201F mutant; endpoint = Hill coefficient; value = 1.3
SMILES = OC[C@H]1OC(O)[C@H](O)[C@@H](O)[C@@H]1O (stereo partly shown); target = Hexokinase-3 (HK3, Homo sapiens, UniProt P52790, A499V); test = substrate inhibition; setting = mutant A499V, partial substrate inhibition model, together with: ATP 20 mM; endpoint = kcat; value = 72 ± 4 s⁻¹
SMILES = FC(F)(F)CN1CC(n2cc(Oc3ccn4nc(Cl)cc4n3)cn2)C1; target = Very long chain fatty acid elongase 1 (Homo sapiens, UniProt Q9BW60); test = CETSA; system = Jurkat; setting = 1 h; endpoint = ΔTm; value = 12.3 °C
SMILES = NC(=O)NO; target = MT-CYB/UQCRFS1; test = complex III-dependent respiration, Seahorse XF96; system = HCT-116; setting = 300 µM, 24 h; how to read = relative to: control; endpoint = oxygen consumption rate; value = 88.7 ± 4.83%
SMILES = Nc1ncnc2c1ncn2[C@@H]1O[C@H](COP(=O)(O)CP(=O)(O)OP(=O)(O)O)[C@@H](O)[C@H]1O; target = P2X purinoceptor 1 (P2RX1, Homo sapiens, UniProt P51575, K136W); test = saturation binding; system = HEK293; setting = 13 nM; endpoint = specific binding; value = 801 CCPM and 872 CCPM
SMILES = CCc1cnn2c(NCc3ccc[n+]([O-])c3)cc(N3CCCC[C@H]3CCO)nc12; target = BRD4 (Homo sapiens, UniProt O60885); test = 19F NMR, refers to: tyrosine 118; setting = 94 µM; how to read = relative to: free protein; endpoint = chemical shift change; value = -0.009 ppm

A few entries again:
SMILES = NC(=O)NO; target = MT-CYB/UQCRFS1; test = complex III-dependent respiration, Seahorse XF96; system = HCT-116; setting = 300 µM, 24 h; how to read = relative to: control; endpoint = oxygen consumption rate; value = 88.7 ± 4.83%
SMILES = CCc1cnn2c(NCc3ccc[n+]([O-])c3)cc(N3CCCC[C@H]3CCO)nc12; target = BRD4 (Homo sapiens, UniProt O60885); test = 19F NMR, refers to: tyrosine 118; setting = 94 µM; how to read = relative to: free protein; endpoint = chemical shift change; value = -0.009 ppm
SMILES = CN1CCN(c2cc(-c3ccncc3)c(-c3ccc4ccccc4c3)nn2)CC1; target = FSHR (Homo sapiens, UniProt P23945); test = agonist, FLIPR; setting = 12.5 µM; endpoint = activation; value = -1.7%
